Results from different studies.
Parts stem from different laboratories: compare values within a part only. Positions count from the first letter of the parent shown.

Set 1 — Variant: H55Y; method: DHFR PCA, deep sequencing; matrix: yeast; reference: wild-type fitted maximum; direction: higher = stronger binding
Target: ABI1, truncated, D143A, DHFR fusion (Arabidopsis thaliana)
Notes: methotrexate growth selection, single substitutions
Parent: PYL1, truncated, DHFR fusion (Arabidopsis thaliana); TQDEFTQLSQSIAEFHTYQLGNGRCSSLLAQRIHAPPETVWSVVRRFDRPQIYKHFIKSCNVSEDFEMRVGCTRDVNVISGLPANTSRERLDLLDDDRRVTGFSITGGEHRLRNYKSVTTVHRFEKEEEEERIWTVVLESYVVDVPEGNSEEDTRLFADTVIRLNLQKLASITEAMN; partner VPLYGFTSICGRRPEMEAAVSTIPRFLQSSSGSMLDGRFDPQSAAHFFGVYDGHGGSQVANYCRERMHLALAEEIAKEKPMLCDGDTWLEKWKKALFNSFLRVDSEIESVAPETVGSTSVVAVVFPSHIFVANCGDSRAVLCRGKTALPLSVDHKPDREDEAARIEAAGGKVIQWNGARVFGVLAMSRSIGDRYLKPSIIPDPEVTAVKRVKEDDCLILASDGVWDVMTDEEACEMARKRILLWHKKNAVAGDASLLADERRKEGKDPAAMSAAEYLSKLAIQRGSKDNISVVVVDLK
The “relative binding score” was 12.4% (together with: (+)-ABA 0.0091 µM).
together with: (+)-ABA 4.8 µM — “relative binding score”: 65.4%.
The “relative binding score” was 77.6% (together with: (+)-ABA 17 µM).
For together with: (+)-ABA 2500 µM: “relative binding score” read 93%.
together with: (+)-ABA 200 µM — “relative binding score”: 99.2%.
For together with: (+)-ABA 0 µM: “relative binding score” read 10.1%.

Set 2 — method: RNAcompete; form: RNA; matrix: in vitro; concentration: 20 nM; notes: 7-mer, probes averaged, single round; reference: mean of 7-mers; direction: higher = stronger binding
Target: PABPC1L2, full length, GST fusion (mouse, UniProt A0ABA7IW68)
Target sequence (chain): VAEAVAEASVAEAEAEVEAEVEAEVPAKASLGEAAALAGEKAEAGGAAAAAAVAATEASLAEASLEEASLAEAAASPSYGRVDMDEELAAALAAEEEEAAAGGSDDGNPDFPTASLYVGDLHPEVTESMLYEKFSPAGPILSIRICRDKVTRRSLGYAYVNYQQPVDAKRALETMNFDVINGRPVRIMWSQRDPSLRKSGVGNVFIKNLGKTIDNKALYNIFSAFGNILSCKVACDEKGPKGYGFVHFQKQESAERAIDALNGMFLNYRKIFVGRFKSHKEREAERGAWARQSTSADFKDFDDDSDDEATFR
The 7-mer Z-score of `UAUAAUA` is reported as -0.0482.
The 7-mer Z-score of `CCCUGUU` is reported as -0.478.
`UAAGAUC` has a 7-mer Z-score of -0.11.
For `CGAAUUU`, the 7-mer Z-score was -0.151.
With `CGACACG` the 7-mer Z-score was -0.0482.
With `CGUCUUU` the 7-mer Z-score was -0.382.
For `UAAAGUG`, the 7-mer Z-score was 1.21.
With `CCUUGCA` the 7-mer Z-score was -0.34.

Set 3 — Substance: NPM1 (Homo sapiens, UniProt P06748); method: cross-linking MS; matrix: cell fractions
The cross-linked residues was “K250 to K214” (KRT4 (Homo sapiens, UniProt P19013); together with: DSSO).
The cross-linked residues was “K223 to K1534” (WDR87 (Homo sapiens, UniProt Q6ZQQ6); together with: DSSO).
It gave “S254 to T106” for cross-linked residues (DPY19L3 (Homo sapiens, UniProt Q6ZPD9); together with: DSSO).
The cross-linked residues was “K141 to K120” (VIM (Homo sapiens, UniProt P08670); together with: DSSO).
It gave “E282 to E930” for cross-linked residues (FAM184B (Homo sapiens, UniProt Q9ULE4); together with: DHSO).

Other studies, line by line
`DTPGERNPY` — result for binding: “inactive” (HLA class I histocompatibility antigen, A alpha chain, allele A*80:01 (Homo sapiens, UniProt P04439); peptide-MHC binding; peptide; concentration not given).
